Published values gathered from unrelated publications.
± gives the spread as reported.

Structure (SMILES) | assay | test system | conditions | how to read | measurement | value
N=C(N)NCCC[C@@H]1NC(=O)[C@H](CCCCNC(=O)CCOCCOCCOCCOCCNC(=O)CC[C@H](NC(=O)CCOCCOCCOCCOCCNC(=O)[C@H](CCCCNC(=O)c2ccc(NN)nc2)NC(=O)c2ccc(NN)nc2)C(=O)NCCOCCOCCOCCOCCC(=O)NCCCC[C@@H]2NC(=O)[C@@H](Cc3ccccc3)NC(=O)[C@H](CC(=O)O)NC(=O)CNC(=O)[C@H](CCCNC(=N)N)NC2=O)NC(=O)[C@@H](Cc2ccccc2)NC(=O)[C@H](CC(=O)O)NC(=O)CNC1=O [technetium-99m labelled] |  | female athymic nude mice | intravenous, 1 h, U-87 MG glioma xenograft | reference: tumour over blood | tissue ratio | 15.9 ± 2.87
N=C(N)NCCC[C@@H]1NC(=O)[C@H](CCCCNC(=O)CNC(=O)CNC(=O)CNC(=O)CC[C@H](NC(=O)CCOCCOCCOCCOCCNC(=O)CC[C@H](NC(=O)CN2CCN(CC(=O)O)CCN(CC(=O)O)CCN(CC(=O)O)CC2)C(=O)NCCOCCOCCOCCOCCC(=O)N[C@@H](CCC(=O)NCC(=O)NCC(=O)NCC(=O)NCCCC[C@@H]2NC(=O)[C@@H](Cc3ccccc3)NC(=O)[C@H](CC(=O)O)NC(=O)CNC(=O)[C@H](CCCNC(=N)N)NC2=O)C(=O)NCC(=O)NCC(=O)NCC(=O)NCCCC[C@@H]2NC(=O)[C@@H](Cc3ccccc3)NC(=O)[C@H](CC(=O)O)NC(=O)CNC(=O)[C@H](CCCNC(=N)N)NC2=O)C(=O)NCC(=O)NCC(=O)NCC(=O)NCCCC[C@@H]2NC(=O)[C@@H](Cc3ccccc3)NC(=O)[C@H](CC(=O)O)NC(=O)CNC(=O)[C@H](CCCNC(=N)N)NC2=O)NC(=O)[C@@H](Cc2ccccc2)NC(=O)[C@H](CC(=O)O)NC(=O)CNC1=O [indium-111 labelled] |  | athymic nude mice, female, U-87 MG glioma xenograft, tumour and liver | intravenous, 4 h | reference: tumour over liver | tumour to tissue ratio | 4.79 ± 0.58
CSCC[C@H](NC(=O)[C@H](CC(C)C)NC(=O)[C@H](Cc1c[nH]cn1)NC(=O)CNC(=O)[C@@H](NC(=O)[C@H](C)NC(=O)[C@H](Cc1c[nH]c2ccccc12)NC(=O)[C@H](CCC(N)=O)NC(=O)CCCCCNC(=O)CN1CCN(CC(=O)O)CCN(CC(=O)O)CC1)C(C)C)C(N)=O [gallium-68 labelled] | microPET imaging | nude mouse PC-3 xenograft, PC-3 tumour | intravenous, 3.7 MBq, 15 min |  | mean tumour uptake | 4.4 ± 0.29 %ID/g
N=C(N)NCCC[C@@H]1NC(=O)[C@H](CCCCNC(=O)CC[C@H](NC(=O)CCOCCOCCOCCOCCNC(=O)CC[C@H](NC(=O)CN2CCN(CC(=O)O)CCN(CC(=O)O)CCN(CC(=O)O)CC2)C(=O)NCCOCCOCCOCCOCCC(=O)N[C@@H](CCC(=O)NCCCC[C@@H]2NC(=O)[C@@H](Cc3ccccc3)NC(=O)[C@H](CC(=O)O)NC(=O)CNC(=O)[C@H](CCCNC(=N)N)NC2=O)C(=O)NCCCC[C@@H]2NC(=O)[C@@H](Cc3ccccc3)NC(=O)[C@H](CC(=O)O)NC(=O)CNC(=O)[C@H](CCCNC(=N)N)NC2=O)C(=O)NCCCC[C@@H]2NC(=O)[C@@H](Cc3ccccc3)NC(=O)[C@H](CC(=O)O)NC(=O)CNC(=O)[C@H](CCCNC(=N)N)NC2=O)NC(=O)[C@@H](Cc2ccccc2)NC(=O)[C@H](CC(=O)O)NC(=O)CNC1=O [indium-111 labelled] |  | female athymic nude mice, liver | intravenous, 3 µCi, 72 h, U-87 MG glioma xenograft |  | tissue uptake | 0.55 ± 0.05 %ID/g
CSCC[C@H](NC(=O)[C@H](CC(C)C)NC(=O)[C@H](Cc1c[nH]cn1)NC(=O)CNC(=O)[C@@H](NC(=O)[C@H](C)NC(=O)[C@H](Cc1c[nH]c2ccccc12)NC(=O)[C@H](CCC(N)=O)NC(=O)CCCCCNC(=O)CNC(=O)CNC(=O)CNC(=O)CSC(C)=O)C(C)C)C(N)=O [technetium-99m labelled] |  | Swiss mouse, muscle | intravenous, 18.5 MBq, 90 min |  | tissue uptake | 0.1 ± 0.04 %ID/g
N=C(N)NCCC[C@@H]1NC(=O)[C@H](CCCCNC(=O)CCOCCOCCOCCOCCNC(=O)CC[C@H](NC(=O)CCOCCOCCOCCOCCNC(=O)CC[C@H](NC(=O)CN2CCN(CC(=O)O)CCN(CC(=O)O)CCN(CC(=O)O)CC2)C(=O)NCCOCCOCCOCCOCCC(=O)N[C@@H](CCC(=O)NCCOCCOCCOCCOCCC(=O)NCCCC[C@@H]2NC(=O)[C@@H](Cc3ccccc3)NC(=O)[C@H](CC(=O)O)NC(=O)CNC(=O)[C@H](CCCNC(=N)N)NC2=O)C(=O)NCCOCCOCCOCCOCCC(=O)NCCCC[C@@H]2NC(=O)[C@@H](Cc3ccccc3)NC(=O)[C@H](CC(=O)O)NC(=O)CNC(=O)[C@H](CCCNC(=N)N)NC2=O)C(=O)NCCOCCOCCOCCOCCC(=O)NCCCC[C@@H]2NC(=O)[C@@H](Cc3ccccc3)NC(=O)[C@H](CC(=O)O)NC(=O)CNC(=O)[C@H](CCCNC(=N)N)NC2=O)NC(=O)[C@@H](Cc2ccccc2)NC(=O)[C@H](CC(=O)O)NC(=O)CNC1=O [indium-111 labelled] |  | athymic nude mice, female, U-87 MG glioma xenograft, U-87 MG tumour | intravenous, 3 µCi, 0.5 h |  | tissue uptake | 10.5 ± 1.83 %ID/g
CCCC[C@H](NC(=O)CCCCCCCNC(=O)c1ccc(NN)nc1)C(=O)N[C@H]1CC(=O)NCCCC[C@@H](C(N)=O)NC(=O)[C@H](Cc2c[nH]c3ccccc23)NC(=O)[C@H](CCCNC(=N)N)NC(=O)[C@@H](Cc2ccccc2)NC(=O)[C@H](Cc2c[nH]cn2)NC1=O [technetium-99m labelled] |  | C57 mouse, B16/F1 melanoma, skin | intravenous, 0.5 h |  | uptake | 3.62 ± 0.35 %ID/g
CC(C)C[C@H](NC(=O)[C@@H]1CCCN1C(=O)[C@H](CCCCN)NC(=O)[C@@H](N)CO)C(=O)N1CCC[C@H]1C(=O)N[C@@H](CCC(=O)O)C(=O)N[C@H](C(=O)N[C@H](C(=O)N[C@@H](CC(=O)O)C(=O)N[C@@H](CCC(=O)O)C(=O)N[C@@H](Cc1ccc(O)cc1)C(=O)N[C@@H](Cc1cn(CCOCCOCCOCCNC(=O)CCc2ccc(O)c(CN(CCN(CC(=O)O)Cc3cc(CCC(=O)NCCCC[C@H](NC(=O)N[C@@H](CCC(=O)O)C(=O)O)C(=O)O)ccc3O)CC(=O)O)c2)nn1)C(=O)O)[C@@H](C)O)C(C)C [gallium-68 labelled] |  | NMRI nu/nu mouse, LNCaP xenograft, submandibular gland | 135.34 nmol/kg, low molar activity |  | SUV | 0.05 g/g
N=C(N)NCCC[C@@H]1NC(=O)[C@H](CCCCNC(=O)CCOCCOCCOCCOCCNC(=O)CN2CCN(CC(=O)O)CCN(CC(=O)O)CCN(CC(=O)O)CC2)NC(=O)[C@@H](Cc2ccccc2)NC(=O)[C@H](CC(=O)O)NC(=O)CNC1=O [indium-111 labelled] |  | athymic nude mice, female, U-87 MG glioma xenograft, tumour and kidney | intravenous, 4 h | reference: tumour over kidney | tumour to tissue ratio | 0.93 ± 0.2
CSCC[C@H](NC(=O)[C@H](CC(C)C)NC(=O)[C@H](Cc1c[nH]cn1)NC(=O)CNC(=O)[C@@H](NC(=O)[C@H](C)NC(=O)[C@H](Cc1c[nH]c2ccccc12)NC(=O)[C@H](CCC(N)=O)NC(=O)[C@H](CC(N)=O)NC(=O)CNC(=O)[C@H](Cc1ccc(O)cc1)NC(=O)[C@H](CCCNC(=N)N)NC(=O)[C@H](CCC(N)=O)NC(=O)[C@@H]1CCCN1C(=O)CN1CCN(CC(=O)O)CCN(CC(=O)O)CCN(CC(=O)O)CC1)C(C)C)C(N)=O [indium-111 labelled] | radio-HPLC | male Swiss nu/nu mice, blood | intravenous, 1 nmol, 5 min |  | intact peptide | 21.2 ± 0.8%
CCCC[C@H](NC(=O)CNC(=O)CNC(=O)c1ccc(NN)nc1)C(=O)N[C@H]1CC(=O)NCCCC[C@@H](C(N)=O)NC(=O)[C@H](Cc2c[nH]c3ccccc23)NC(=O)[C@H](CCCNC(=N)N)NC(=O)[C@@H](Cc2ccccc2)NC(=O)[C@H](Cc2c[nH]cn2)NC1=O [technetium-99m labelled] |  | C57 mouse, B16/F1 melanoma-bearing | intravenous, 24 h | reference: tumour over kidney | tissue uptake ratio | 3.55
CC(C)C[C@@H]1NC(=O)[C@H](C(C)C)NC(=O)[C@H](CO)NC(=O)CNC(=O)CNC(=O)[C@H](CCCNC(=N)N)NC(=O)[C@@H]2CCCN2C(=O)[C@@H](NC(=O)CC[C@H](NC(=O)c2ccc(N(C)Cc3cnc4nc(N)nc(N)c4n3)cc2)C(=O)O)C(C)(C)SSC[C@@H](C(=O)O)NC(=O)CNC(=O)[C@H]([C@@H](C)O)NC(=O)[C@H](C(C)C)NC1=O | HPLC | Phosphate buffer | pH 8.0, 70 °C |  | degradation rate constant | 0.0031 h⁻¹
